Experimental data of several laboratories.
Each numbered part is a random draw from the data of one study; scales do not carry over between parts. Several values in a cell are separate wells, animals, samples, runs or records.

Series 1
Target: Interferon regulatory factor 7, full length, phosphomimetic (IRF7, Homo sapiens, UniProt Q92985, residues 1-503, S101K/S471D/S472D/S475D/S476D/S477D/S483D/S484D/S487D)
Method: protein-binding microarray
Form: double-stranded DNA, one strand shown
Matrix: in vitro
Tested at: 250 nM
Setting: 60-bp whole probe
Added: salmon DNA 0.4 mg/ml
Relative to: random background probes
Reading: higher = stronger binding
Shared flanks, not repeated: GCCTAGCAC … GTCTTGATTCGCTTGACGCTGCTG
Residues (chain): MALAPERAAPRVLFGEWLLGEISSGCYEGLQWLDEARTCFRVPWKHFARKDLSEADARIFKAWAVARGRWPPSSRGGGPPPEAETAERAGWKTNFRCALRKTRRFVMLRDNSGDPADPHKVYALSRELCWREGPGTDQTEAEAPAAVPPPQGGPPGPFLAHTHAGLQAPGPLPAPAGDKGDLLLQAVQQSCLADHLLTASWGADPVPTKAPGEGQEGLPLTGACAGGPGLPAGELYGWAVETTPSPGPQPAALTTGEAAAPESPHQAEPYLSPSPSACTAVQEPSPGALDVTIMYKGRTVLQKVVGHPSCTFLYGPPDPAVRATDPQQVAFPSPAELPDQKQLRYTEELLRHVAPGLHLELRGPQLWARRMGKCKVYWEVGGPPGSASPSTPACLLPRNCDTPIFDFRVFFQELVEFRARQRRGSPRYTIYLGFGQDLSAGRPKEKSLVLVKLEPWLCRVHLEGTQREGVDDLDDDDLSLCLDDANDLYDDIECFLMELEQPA
| Oligonucleotide | log fluorescence [z-score] |
| --- | --- |
| GACGAAATGGGGACTGGAGACGTGCTA | -0.397 |
| TTAGGTGTCGGTATCGGTTAGTGCTAG | 0.606 |
| GACGGTTTCGACTGTCGGGACGTGCTA | 4.95 |
| TTAGGTATCGGGTTTCGGTAAGTGCTA | 3.5 |
| TTAGATCTCAGCTTCGATTAGTGCTAG | 0.384 |
| AACGGTTTCGGGTTTCGGGACGTGCTA | 12.5 |
| TAAGATATCGGGTATCGATTAGTGCTA | 0.969 |

Series 2
Target: RNA binding protein fox-1 homolog 2, RRM domain, GST-SBP tag (RBFOX2, Homo sapiens, UniProt O43251-10, residues 100-194)
Method: RNA Bind-n-Seq
Form: RNA
Matrix: in vitro
Tested at: 365 nM
Setting: natural RNA segment, single round, ends assumed
Relative to: no-protein control
Reading: higher = stronger binding
Residues (chain): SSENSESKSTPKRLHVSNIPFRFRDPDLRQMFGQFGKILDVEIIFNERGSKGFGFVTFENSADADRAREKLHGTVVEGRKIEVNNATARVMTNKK
| Oligonucleotide | RBNS enrichment (R) |
| --- | --- |
| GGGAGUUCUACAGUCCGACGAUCUUUAGAAGAUGCCAUACGUCGUGUGACAGCUCAUGAGCCUUUCACUGGGCUGGCAAUUGUCUGAACACUUGGGUUCAGUUGAAAUAUAUGUAUUUUGGCCAAAAGCCAGCUGGAAUUCUCGGGUGCCAA | 0.219 |
| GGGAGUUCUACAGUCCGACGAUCACCUGGAGGUGGUCCAUGCCAGAUCCUCAUUUGUGCCUUCAGCUUCAUAGGCAGCAUACGCCUGCUGCCCCAUUGUGGGUGGGGGUGCCCCACUGCGUACUGUGUUUUUAUGGAAUUCUCGGGUGCCAA | 0.308 |
| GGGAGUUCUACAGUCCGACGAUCUUUAAGAUAGGACUAAGAGUUCAUCUCCUUCUAGAAGGCCCCCAGGUUAAAUAAAAACACUUGGGGGUAAGAGGGCUUUCUUCAGAGACUCCCAGGUGGGAGUGCCUCUAUGGAAUUCUCGGGUGCCAA | 0.253 |
| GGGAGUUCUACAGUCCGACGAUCAGAGCAGCCAUAUGUGCCAUGGGUGCUUUGUGUUAGUUAUCUGCUCUAGUCUUACAGCUGAAAAUUGACCUCUGCCUUCCCCCAUCCCUUACUUUUUUUAGAUCCCUGUCUGGAAUUCUCGGGUGCCAA | 0.596 |
| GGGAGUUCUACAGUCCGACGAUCUUCACAUGAAAAACACAGCCAGCCCAAGAUGACUUAUCUGGGUUUAGGAUUCAAUAGUAUUCACUAACUGCUUAUUACAUGAGCAAUUUCAUCAAAUCUCCAAACUCUUAUGGAAUUCUCGGGUGCCAA | 0.323 |
| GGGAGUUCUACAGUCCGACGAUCGUCAUUCCAUUUCUUUUGUUUGAAGCUAAAGAGAUGUGUAGCUCACAGGGGCUACCUUACCAGUAUAAAGAGCUGAUAACAGUACUCAGAAGAAUCUGUGAACAAAUACUUGGAAUUCUCGGGUGCCAA | 0.341 |
| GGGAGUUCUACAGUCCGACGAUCGCCUCUUCAGGAAAGAAACCUCAUUCUUUGGCAAGCAGGAGGUGACACUAGAUGGCUGUGAAUGUGAUCCGCUCACUGACACUCUGUAAAGGCCAAUCAAUGCACUGUCUUGGAAUUCUCGGGUGCCAA | 0.278 |
| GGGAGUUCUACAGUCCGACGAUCCUGGGACUGUGAGGCUCCUUUUGACGUACUUUUGACAUCAGGCAGGUUUGGGAAGAAACAAAGCCAUGCCUGCUCCUGCCUCUCUCCCAACAUGUUUCCAGCAAGUAGAUUGGAAUUCUCGGGUGCCAA | 1.17 |

Series 3
Target: Ras GTPase-activating protein-binding protein 1, RRM domain (G3BP1, Homo sapiens, UniProt Q13283)
Sequence of UniProt Q13283 (whole entry, looked up): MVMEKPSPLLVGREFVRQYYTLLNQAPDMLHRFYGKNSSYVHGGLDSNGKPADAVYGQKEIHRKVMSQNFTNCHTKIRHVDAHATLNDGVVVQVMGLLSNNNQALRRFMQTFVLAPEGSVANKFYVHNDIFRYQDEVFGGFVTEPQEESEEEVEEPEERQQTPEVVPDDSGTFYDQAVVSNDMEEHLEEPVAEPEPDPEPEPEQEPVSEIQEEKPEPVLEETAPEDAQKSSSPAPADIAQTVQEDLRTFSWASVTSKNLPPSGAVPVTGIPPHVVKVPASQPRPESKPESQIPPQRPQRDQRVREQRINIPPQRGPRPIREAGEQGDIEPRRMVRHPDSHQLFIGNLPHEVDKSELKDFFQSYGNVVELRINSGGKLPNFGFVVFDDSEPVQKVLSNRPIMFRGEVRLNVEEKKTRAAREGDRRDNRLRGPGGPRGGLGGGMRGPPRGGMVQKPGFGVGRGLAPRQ
Method: RNA Bind-n-Seq
Form: RNA
Matrix: in vitro
Tested at: 1 µM
Setting: whole 134-nt RNA, ends assumed
Added: 150 mM KCl
Relative to: input library
Reading: higher = stronger binding
| Oligonucleotide | log2 enrichment |
| --- | --- |
| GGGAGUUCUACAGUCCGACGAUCAGUCCUGUGCUACACAUCGUAUGUACCGAAUCGGAAAAAAAGGAAAGGAAAAAAAGGAAAGUAUUAUGUUACGCCGUUCGGAUCUGCACUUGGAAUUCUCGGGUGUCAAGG | 0.0436 |
| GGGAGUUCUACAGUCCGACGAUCCAAGUCCUGUGCUACACAUCGUAUGUACCGAAUCGGGGAAGGGGAAGGGGAAGGGGAAAGUAUUAUGUUACGCCGUUCGGAUCUGCACUUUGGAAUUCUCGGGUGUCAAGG | 1.45 |
| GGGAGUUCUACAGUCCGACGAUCCUGUGCUACACAUCGUAUGUACCGAAUCGGGGAAAAAAAGGAAAAAAAGGGAAAAAAAGGGGAAAGUAUUAUGUUACGCCGUUCGGAUCUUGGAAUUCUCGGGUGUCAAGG | 0.115 |
| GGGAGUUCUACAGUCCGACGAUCUCAUGGCUAUCAUUAGCCACAGGUACUGCUGAUUAUAAGGCCAGUAAAAUUUUAGUACCUGGAGGUUUGACUCUAAUUUUUGCACUGAUGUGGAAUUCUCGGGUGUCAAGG | -0.357 |
| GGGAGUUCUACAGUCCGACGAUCCCUCAAGUCCUGUGCUACACAUCGUAUGUACCGAAUCGGGUGGGUGGGGUGGGAAAGUAUUAUGUUACGCCGUUCGGAUCUGCACUUCCAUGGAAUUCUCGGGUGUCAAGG | 0.726 |
| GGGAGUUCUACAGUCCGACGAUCGUCCUGUGCUACACAUCGUAUGUACCGAAUCGGAAAAAGGAAAAAGGGGAAAAAGGGGAAAGUAUUAUGUUACGCCGUUCGGAUCUGCACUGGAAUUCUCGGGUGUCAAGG | 0.0434 |
| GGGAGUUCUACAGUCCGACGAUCUGGGAGGUGGAUUUUGUUUAUUUUUUUAGCUCAUUUCCAGGGGUGGGAAUUUUUUUUUAAUAUGUGUCAUGAUUAAAGUUGUUUUUGAAAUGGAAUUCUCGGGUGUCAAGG | 2 |

Single results of other studies
| Substance | target | test | test system | conditions | how to read | endpoint | result |
| --- | --- | --- | --- | --- | --- | --- | --- |
| PhoQ, residues 284 288 289 292 302 303 SIHLQL | PhoP, residues 12 14 15 18 19 LWHSL (Escherichia coli, UniProt P23836) | Sort-seq, measured: YFP reporter | E. coli | PhoQ-PhoP variant library, added: 10 µM Mg2+ | relative to: high Mg2+ state, higher = stronger signaling | fold induction | 13.5 and 6.82 |

Repeated from above (series 3):
| Oligonucleotide | log2 enrichment |
| --- | --- |
| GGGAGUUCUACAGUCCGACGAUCGUCCUGUGCUACACAUCGUAUGUACCGAAUCGGAAAAAGGAAAAAGGGGAAAAAGGGGAAAGUAUUAUGUUACGCCGUUCGGAUCUGCACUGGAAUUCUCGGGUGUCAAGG | 0.0434 |
